Published values from different studies.
A part holds a random share of what one study measured. Substitutions count along the parent as printed.

Series 1 — technique: RNA Bind-n-Seq; molecule type: RNA; medium: in vitro; tested at: 20 nM; notes: 6-mer, flanks averaged, single round; together with: 150 mM KCl; baseline: input library; direction: higher = stronger binding
Target: TAR DNA-binding protein 43, full length, His tag (TARDBP, Homo sapiens, UniProt Q13148, residues 1-414)
Sequence	6-mer enrichment (R)
AGUAUA	0.684
UUACUC	0.553
GAUAGG	1.68
GCGCGG	3.63
ACAACC	0.615
AUUUGG	0.868
AUUUCC	0.57
GAAGAG	1.82
CAAAGA	0.661
AUGAUC	0.605
GGACGA	1.72

Series 2 — target: CCND1, cyclin fold, Cln2 fusion (human); technique: yeast growth competition, sequencing; medium: yeast; notes: weak parent motif; baseline: not given; direction: higher = stronger binding
Starting sequence: FZR1 docking peptide (human); QDYERRLLRQIVI; partner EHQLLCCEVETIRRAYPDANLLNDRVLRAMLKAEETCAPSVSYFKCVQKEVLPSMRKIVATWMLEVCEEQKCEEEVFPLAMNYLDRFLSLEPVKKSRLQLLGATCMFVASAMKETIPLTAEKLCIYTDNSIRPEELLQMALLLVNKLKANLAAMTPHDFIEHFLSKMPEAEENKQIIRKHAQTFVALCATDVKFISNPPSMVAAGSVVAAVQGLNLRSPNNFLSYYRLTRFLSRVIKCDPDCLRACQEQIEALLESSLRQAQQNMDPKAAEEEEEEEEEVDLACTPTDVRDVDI
Change	normalised enrichment score
R6A	0.0286
Q10A	-0.203
R9A	-0.403
E4A	0.254
I11A	0.237
V12A	-0.292
R5K	-0.116

Series 3 — technique: DHFR PCA, deep sequencing; medium: yeast; together with: (+)-ABA 58 µM; baseline: wild-type fitted maximum; direction: higher = stronger binding
Target: ABI1, truncated, D143A, DHFR fusion (Arabidopsis thaliana)
Notes: methotrexate growth selection, single substitutions
Starting sequence: PYL1, truncated, DHFR fusion (Arabidopsis thaliana); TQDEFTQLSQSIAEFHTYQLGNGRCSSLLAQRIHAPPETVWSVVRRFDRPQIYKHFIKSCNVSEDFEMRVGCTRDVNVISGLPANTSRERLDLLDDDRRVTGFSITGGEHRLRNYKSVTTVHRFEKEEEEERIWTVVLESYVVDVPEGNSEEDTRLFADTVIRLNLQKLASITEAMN; partner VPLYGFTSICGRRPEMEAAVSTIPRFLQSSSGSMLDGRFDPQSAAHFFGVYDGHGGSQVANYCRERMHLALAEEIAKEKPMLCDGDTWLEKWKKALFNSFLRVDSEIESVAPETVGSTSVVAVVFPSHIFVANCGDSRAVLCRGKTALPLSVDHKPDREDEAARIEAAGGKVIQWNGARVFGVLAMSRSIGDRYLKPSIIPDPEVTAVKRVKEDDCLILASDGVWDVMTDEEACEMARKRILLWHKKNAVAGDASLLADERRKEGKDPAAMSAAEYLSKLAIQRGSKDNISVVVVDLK
Change	relative binding score [%]
S104F	13.8
E4M	84.2
S150Y	34.1
F56N	-7.57
D75G	58.2
R155I	81.1
V136I	104
T160C	73.9
F124T	69.6
T17F	50.2
D95R	30.4
I57L	79.1
S150H	57.8

Other studies, line by line
Substance	target	test	test system	conditions	how to read	endpoint	value
PhoQ, residues 284 288 289 292 302 303 TAVSDG	PhoP, residues 12 14 15 18 19 QWHVF (Escherichia coli, UniProt P23836)	Sort-seq, item: YFP reporter	E. coli	PhoQ-PhoP variant library, together with: 10 µM Mg2+	baseline: high Mg2+ state, higher = stronger signaling	fold induction	4.12

Some of these lines once more (series 1):
Sequence	6-mer enrichment (R)
ACAACC	0.615
AUUUGG	0.868
AUUUCC	0.57
GAAGAG	1.82
